Assay results gathered from unrelated publications.
Compare with care: the assays were run in different laboratories. pKd: −log10 of the molar value.
CSNK1D: Casein kinase I isoform delta (CSNK1D, Homo sapiens, UniProt P48730)
Chain of UniProt P48730 (whole entry, looked up): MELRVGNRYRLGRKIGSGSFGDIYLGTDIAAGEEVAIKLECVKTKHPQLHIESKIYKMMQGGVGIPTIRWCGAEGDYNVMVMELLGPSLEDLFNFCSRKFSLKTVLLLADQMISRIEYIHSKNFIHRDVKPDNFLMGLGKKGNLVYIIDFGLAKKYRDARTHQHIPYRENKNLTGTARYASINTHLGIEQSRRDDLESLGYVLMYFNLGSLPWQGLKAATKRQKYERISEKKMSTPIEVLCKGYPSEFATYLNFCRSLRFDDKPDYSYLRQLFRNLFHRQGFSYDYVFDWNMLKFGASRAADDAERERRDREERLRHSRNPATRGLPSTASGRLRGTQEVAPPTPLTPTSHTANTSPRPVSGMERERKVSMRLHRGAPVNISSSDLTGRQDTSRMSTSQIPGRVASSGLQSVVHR
Chain of UniProt P0C264 (whole entry, looked up): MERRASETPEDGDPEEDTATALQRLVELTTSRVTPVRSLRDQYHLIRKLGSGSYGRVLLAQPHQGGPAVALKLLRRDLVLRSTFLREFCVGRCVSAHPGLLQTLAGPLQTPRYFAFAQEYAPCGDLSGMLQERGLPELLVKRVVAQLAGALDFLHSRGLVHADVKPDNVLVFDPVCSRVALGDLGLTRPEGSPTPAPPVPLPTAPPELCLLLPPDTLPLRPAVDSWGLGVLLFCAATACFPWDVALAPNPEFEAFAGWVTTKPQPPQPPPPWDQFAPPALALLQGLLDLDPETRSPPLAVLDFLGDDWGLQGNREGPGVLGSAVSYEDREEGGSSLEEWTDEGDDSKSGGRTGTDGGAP
Chain of UniProt P68400 (whole entry, looked up): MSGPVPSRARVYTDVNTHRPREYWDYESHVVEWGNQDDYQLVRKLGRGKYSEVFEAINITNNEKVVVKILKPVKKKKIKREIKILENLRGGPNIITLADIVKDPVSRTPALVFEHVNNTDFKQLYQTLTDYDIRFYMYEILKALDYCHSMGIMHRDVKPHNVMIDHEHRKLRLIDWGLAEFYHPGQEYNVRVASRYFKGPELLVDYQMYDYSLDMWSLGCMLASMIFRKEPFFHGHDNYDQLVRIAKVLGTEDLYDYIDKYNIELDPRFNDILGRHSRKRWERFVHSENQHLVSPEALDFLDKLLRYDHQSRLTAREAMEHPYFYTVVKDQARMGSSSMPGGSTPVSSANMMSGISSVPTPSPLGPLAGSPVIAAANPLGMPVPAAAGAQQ

| Compound | target or system | assay | test system | setting | measurement | result |
| --- | --- | --- | --- | --- | --- | --- |
| [2H]c1c([2H])c([C@]2([2H])CCCN2C(=O)C(C)(C)Oc2ccc3cn[nH]c3c2)c([2H])c([2H])c1C([2H])([2H])[2H] | SBK3 (Homo sapiens, UniProt P0C264) | binding, competition with immobilised ligand |  | 1 µM | remaining binding | 96% |
| COc1cccc(-c2n[nH]c(SCc3ccccn3)n2)c1OC |  |  | male Sprague-Dawley rat, plasma | oral, 30 mg/kg, 4 h, single dose | concentration | 2170 ng/mL |
| C1=C/COCc2cc(ccc2OCCN2CCCC2)Nc2nccc(n2)-c2cccc(c2)COC/1 | CSNK2A1 (Homo sapiens, UniProt P68400) | binding |  | 0.1 µM | remaining binding | 56% |
| C=CC(=O)N1CCC(COCC(=O)N2CCN(c3nc(-c4cnc(N)nc4C(F)F)nc(N4CCOC[C@@H]4C)n3)CC2)CC1 | CSNK1D | binding, competition with immobilised ligand |  | 1 µM | remaining binding | 100% |
| Cc1cccc(N(O)N=Nc2ccc(S(=O)(=O)Nc3onc(C)c3C)cc2)c1 |  | DPPH scavenging, absorbance |  | 120 µg/mL | inhibition | 26.3% |
| N#Cc1cncc2c1NCCC2 | CSNK1D | binding, SPR |  |  | pKd | < 4.30 |
| Cc1cccc(N(O)N=Nc2ccc(S(=O)(=O)Nc3cc(C)on3)cc2)c1 |  | DPPH scavenging, absorbance |  | 20 µg/mL | inhibition | 27.9% |
| Cc1cc([C@@H](C)Nc2ccccc2C(=O)O)c2nc(N3CCC(F)(F)CC3)c(C#N)c(=O)n2c1 | ERBB2 (Homo sapiens, UniProt P04626) | binding, competition with immobilised ligand |  | 1 µM | remaining binding | 100% |

Some of these lines once more:
| Compound | target or system | assay | test system | setting | measurement | result |
| --- | --- | --- | --- | --- | --- | --- |
| C1=C/COCc2cc(ccc2OCCN2CCCC2)Nc2nccc(n2)-c2cccc(c2)COC/1 | CSNK2A1 (Homo sapiens, UniProt P68400) | binding |  | 0.1 µM | remaining binding | 56% |
